Experimental data from different studies.
Each line is one published result; not all experiments were run side by side. ± gives the spread as reported.
Chain of UniProt P0AC78 (whole entry, looked up): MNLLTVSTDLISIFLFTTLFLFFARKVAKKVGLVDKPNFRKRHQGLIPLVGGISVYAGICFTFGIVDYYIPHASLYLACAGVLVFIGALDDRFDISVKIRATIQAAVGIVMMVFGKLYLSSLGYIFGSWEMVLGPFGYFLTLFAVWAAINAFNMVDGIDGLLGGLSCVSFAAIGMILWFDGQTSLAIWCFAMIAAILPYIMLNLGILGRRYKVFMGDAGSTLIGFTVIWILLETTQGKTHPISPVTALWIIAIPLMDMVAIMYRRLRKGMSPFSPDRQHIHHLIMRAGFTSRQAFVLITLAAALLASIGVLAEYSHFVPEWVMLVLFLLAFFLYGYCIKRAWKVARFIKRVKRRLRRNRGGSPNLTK
Chain of UniProt O94925 (whole entry, looked up): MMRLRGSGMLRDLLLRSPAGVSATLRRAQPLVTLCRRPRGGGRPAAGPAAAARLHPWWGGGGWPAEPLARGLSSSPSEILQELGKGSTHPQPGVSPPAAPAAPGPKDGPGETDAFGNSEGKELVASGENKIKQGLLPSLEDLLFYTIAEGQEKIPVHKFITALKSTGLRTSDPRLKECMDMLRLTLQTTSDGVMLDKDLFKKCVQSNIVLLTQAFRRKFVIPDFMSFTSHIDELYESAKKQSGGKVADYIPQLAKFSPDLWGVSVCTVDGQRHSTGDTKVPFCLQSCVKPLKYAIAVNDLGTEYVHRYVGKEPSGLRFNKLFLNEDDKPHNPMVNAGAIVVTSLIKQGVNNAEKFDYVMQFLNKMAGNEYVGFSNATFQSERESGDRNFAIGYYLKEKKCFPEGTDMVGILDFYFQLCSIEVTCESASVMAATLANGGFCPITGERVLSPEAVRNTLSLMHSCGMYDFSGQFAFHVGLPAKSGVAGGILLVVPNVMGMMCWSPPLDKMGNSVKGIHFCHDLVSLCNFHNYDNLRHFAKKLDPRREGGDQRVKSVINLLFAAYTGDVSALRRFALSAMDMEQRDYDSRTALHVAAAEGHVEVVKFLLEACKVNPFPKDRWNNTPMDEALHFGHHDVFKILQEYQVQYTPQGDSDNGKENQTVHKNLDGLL
Chain of UniProt O15151 (whole entry, looked up): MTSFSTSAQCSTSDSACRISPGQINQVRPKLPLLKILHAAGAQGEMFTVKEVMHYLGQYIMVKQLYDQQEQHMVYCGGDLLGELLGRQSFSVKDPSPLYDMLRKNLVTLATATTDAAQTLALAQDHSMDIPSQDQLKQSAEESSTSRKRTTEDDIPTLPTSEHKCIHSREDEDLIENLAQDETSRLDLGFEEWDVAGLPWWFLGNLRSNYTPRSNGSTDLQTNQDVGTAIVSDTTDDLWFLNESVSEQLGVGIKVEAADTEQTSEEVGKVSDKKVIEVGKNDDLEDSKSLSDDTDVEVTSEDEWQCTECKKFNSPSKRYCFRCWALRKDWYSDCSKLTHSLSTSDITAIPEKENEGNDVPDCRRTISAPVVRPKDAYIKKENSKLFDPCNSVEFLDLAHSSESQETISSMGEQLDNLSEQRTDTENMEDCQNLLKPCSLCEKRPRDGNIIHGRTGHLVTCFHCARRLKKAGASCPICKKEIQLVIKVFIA
Chain of UniProt P27338 (whole entry, looked up): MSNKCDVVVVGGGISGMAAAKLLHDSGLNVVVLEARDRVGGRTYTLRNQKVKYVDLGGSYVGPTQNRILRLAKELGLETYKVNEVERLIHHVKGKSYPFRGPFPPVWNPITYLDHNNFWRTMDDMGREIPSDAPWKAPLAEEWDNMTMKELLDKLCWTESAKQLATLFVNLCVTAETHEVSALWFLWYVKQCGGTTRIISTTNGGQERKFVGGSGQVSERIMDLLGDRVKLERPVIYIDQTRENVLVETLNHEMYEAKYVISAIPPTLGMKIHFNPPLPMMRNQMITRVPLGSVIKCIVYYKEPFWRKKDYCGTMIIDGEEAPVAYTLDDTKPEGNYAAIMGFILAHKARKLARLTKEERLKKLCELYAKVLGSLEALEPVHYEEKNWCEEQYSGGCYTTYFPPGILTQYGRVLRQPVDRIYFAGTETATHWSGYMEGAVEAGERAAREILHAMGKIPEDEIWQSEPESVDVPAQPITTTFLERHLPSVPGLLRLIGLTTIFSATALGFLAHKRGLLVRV
Chain of UniProt P30803 (whole entry, looked up): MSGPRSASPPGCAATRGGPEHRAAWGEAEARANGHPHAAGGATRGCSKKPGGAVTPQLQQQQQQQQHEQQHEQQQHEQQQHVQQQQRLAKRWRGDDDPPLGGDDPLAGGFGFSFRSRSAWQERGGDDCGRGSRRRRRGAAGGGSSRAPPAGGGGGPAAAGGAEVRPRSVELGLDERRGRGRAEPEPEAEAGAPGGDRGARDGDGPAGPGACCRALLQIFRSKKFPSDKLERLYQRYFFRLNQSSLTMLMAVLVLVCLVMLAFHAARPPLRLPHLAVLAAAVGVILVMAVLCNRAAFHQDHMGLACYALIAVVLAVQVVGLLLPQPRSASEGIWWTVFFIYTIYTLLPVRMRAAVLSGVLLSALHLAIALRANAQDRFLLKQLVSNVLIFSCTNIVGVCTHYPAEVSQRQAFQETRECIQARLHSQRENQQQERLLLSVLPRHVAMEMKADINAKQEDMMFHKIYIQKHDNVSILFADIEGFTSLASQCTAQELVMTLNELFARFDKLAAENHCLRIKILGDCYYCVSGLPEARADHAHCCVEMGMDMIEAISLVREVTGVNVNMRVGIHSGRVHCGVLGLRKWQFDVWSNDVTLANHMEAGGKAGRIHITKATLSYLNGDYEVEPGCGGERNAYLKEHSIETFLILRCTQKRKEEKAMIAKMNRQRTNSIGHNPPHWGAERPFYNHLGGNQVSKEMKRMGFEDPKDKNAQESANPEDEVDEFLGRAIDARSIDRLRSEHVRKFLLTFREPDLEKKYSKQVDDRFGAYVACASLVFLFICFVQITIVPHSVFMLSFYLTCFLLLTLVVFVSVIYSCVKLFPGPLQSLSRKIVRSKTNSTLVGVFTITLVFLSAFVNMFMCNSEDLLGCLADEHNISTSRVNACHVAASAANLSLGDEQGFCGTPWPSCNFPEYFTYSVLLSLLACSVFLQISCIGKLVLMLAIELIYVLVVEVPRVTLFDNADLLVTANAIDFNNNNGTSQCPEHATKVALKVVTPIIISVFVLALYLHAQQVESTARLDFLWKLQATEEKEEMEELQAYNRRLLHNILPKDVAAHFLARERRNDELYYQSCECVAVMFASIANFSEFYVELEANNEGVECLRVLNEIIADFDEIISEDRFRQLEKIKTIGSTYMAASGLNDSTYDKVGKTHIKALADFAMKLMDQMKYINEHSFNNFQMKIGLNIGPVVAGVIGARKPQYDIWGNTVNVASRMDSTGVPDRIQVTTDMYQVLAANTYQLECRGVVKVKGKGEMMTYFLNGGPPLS
Chain of UniProt Q9VK33 (whole entry, looked up): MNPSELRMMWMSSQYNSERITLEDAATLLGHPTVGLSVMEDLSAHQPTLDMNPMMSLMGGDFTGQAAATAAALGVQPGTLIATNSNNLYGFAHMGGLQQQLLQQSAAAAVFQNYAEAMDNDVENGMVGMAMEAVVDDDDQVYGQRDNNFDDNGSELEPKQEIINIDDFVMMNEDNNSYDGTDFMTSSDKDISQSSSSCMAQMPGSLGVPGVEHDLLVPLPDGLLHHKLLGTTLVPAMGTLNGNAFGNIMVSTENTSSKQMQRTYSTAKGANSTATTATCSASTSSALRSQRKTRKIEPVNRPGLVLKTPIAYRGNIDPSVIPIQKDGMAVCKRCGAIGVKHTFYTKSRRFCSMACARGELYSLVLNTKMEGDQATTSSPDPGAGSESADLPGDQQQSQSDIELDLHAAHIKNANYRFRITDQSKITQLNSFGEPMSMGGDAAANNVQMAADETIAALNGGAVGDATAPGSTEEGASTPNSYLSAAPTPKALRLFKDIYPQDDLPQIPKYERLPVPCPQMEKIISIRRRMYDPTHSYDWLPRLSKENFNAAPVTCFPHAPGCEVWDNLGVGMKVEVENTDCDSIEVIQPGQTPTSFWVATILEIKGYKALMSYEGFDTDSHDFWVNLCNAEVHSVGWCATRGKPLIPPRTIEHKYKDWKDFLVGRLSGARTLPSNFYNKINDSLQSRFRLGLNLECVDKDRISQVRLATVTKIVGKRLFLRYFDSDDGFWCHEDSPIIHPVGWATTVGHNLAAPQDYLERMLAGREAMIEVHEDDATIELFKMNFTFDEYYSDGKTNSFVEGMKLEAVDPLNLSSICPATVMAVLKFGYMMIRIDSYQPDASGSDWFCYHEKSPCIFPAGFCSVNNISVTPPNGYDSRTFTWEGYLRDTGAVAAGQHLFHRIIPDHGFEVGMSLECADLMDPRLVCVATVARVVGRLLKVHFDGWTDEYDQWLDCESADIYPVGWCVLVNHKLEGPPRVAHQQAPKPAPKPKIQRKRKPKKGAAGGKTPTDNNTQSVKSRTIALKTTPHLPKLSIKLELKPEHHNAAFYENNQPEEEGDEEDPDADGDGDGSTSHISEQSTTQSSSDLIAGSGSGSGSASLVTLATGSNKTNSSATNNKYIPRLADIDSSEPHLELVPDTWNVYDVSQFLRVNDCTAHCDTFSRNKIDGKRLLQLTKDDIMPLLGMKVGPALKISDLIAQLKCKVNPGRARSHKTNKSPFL

Structure (SMILES) | tested on | test | setting | measurement | result
CC[C@H](C)[C@@H]1NC(=O)[C@@H]2CSSC[C@@H]3NC(=O)[C@H](C(C)C)NC(=O)CNC(=O)CNC(=O)[C@H](C)NC(=O)[C@H](CO)NC(=O)[C@H](CC(C)C)NC(=O)[C@H](CC(C)C)NC(=O)[C@H](CC(N)=O)NC(=O)[C@H](Cc4c[nH]c5ccccc45)NC(=O)[C@H](Cc4ccc(O)cc4)NC(=O)[C@H](CCC(=O)O)NC(=O)[C@H](C)NC(=O)[C@H](Cc4ccccc4)NC(=O)[C@H](CO)NC(=O)[C@H]([C@@H](C)O)NC(=O)[C@@H]4CCCN4C(=O)[C@H](C)NC(=O)[C@H](CCCNC(=N)N)NC(=O)[C@H](CO)NC(=O)[C@H](C)NC(=O)CNC(=O)[C@H](CO)NC(=O)CNC(=O)[C@H](CO)NC(=O)CNC(=O)[C@@H]4CSSC[C@H](NC(=O)[C@H](CC(=O)O)NC(=O)[C@H](CO)NC(=O)[C@H](CC(=O)O)NC(=O)[C@H](CCCNC(=N)N)NC(=O)[C@H](CCCNC(=N)N)NC(=O)[C@H](CSSC[C@H](NC1=O)C(=O)N[C@@H](CCCNC(=N)N)C(=O)NCC(=O)N[C@@H](CC(N)=O)C(=O)NCC(=O)N[C@@H](Cc1ccc(O)cc1)C(=O)N4)NC(=O)[C@H](CCCNC(=N)N)NC(=O)[C@H](CCC(N)=O)NC(=O)[C@H](CC(C)C)NC(=O)[C@H]([C@@H](C)CC)NC(=O)[C@H](CCCCN)NC(=O)[C@@H]1CCCN1C3=O)C(=O)N1CCC[C@H]1C(=O)NCC(=O)N[C@@H](C)C(=O)N2 | Protein Mdm4, p53 binding domain (MDM4, Homo sapiens, UniProt O15151) | binding, fluorescence polarization | FITC-labelled derivative | Kd | 9.7 ± 0.9 nM
CNCCCC[C@H](NC(=O)[C@@H](NC(=O)CNC(=O)CNC(=O)[C@@H](NC(=O)[C@H](C)NC(=O)[C@@H]1CCCN1C(=O)[C@H](C)NC(=O)[C@@H](N)CO)[C@@H](C)O)C(C)C)C(=O)N[C@@H](CCCCN)C(=O)N1CCC[C@H]1C(=O)N[C@@H](Cc1c[nH]cn1)C(=O)N[C@@H](CCCNC(=N)N)C(=O)N[C@@H](Cc1ccc(O)cc1)C(=O)N[C@@H](CCCNC(=N)N)C(=O)N1CCC[C@H]1C(=O)NCC(N)=O | Polycomb protein Sfmbt (Sfmbt, Drosophila melanogaster, UniProt Q9VK33) | binding, fluorescence polarization | pH 8.0, Drosophila melanogaster protein, added: fluorescein-labelled peptide 80 nM | Kd | 5400 nM
NC1CC1c1ccc(NC(=O)Cc2ccccc2)cc1 (stereo not drawn) | MAOB (Homo sapiens, UniProt P27338) | enzyme activity, inhibitor, HRP-coupled | 100 µM, added: benzylamine substrate | inhibition | 33%
CCOP(=O)(OCC)Oc1nc(Cl)c(Cl)cc1Cl | Albumin (Alb, Rattus norvegicus, UniProt P02770) | binding |  | IC50 | ~100 nM
C#CCCC1(CCCNC(=O)CCOCCOc2ccc(-c3cnc4c(C#Cc5cccnc5)snc4c3)cc2)N=N1 | PIP4K2C (Homo sapiens, UniProt Q8TBX8) |  |  | Kd | 610 nM
CC(=O)NC1C(OC2OC(CC(O)C3OC(n4ccc(=O)[nH]c4=O)C(O)C3O)C(O)C(O)C2NC(=O)C=CCCCCCCCCCC(C)C)OC(CO)C(O)C1O (stereo not drawn) | Undecaprenyl-phosphate alpha-N-acetylglucosaminyl 1-phosphate transferase (wecA, Escherichia coli, UniProt P0AC78) |  |  | IC50 | > 50000 nM
CC[C@H](C)[C@H](NC(=O)[C@H](CC(N)=O)NC(=O)[C@H](CCCNC(=N)N)NC(=O)[C@@H](NC(=O)[C@@H](NC(=O)[C@H](CC(=O)O)NC(=O)[C@H](CCC(=O)O)NC(=O)[C@H](CCC(N)=O)NC(C)=O)[C@@H](C)CC)[C@@H](C)CC)C(=O)N[C@@H](C)C(=O)N[C@@H](CCCNC(=N)N)C(=O)N[C@@H](Cc1c[nH]cn1)C(=O)N[C@@H](CC(C)C)C(=O)N[C@@H](C)C(=O)N[C@@H](CCC(N)=O)C(=O)N[C@H](C(=O)NCC(=O)N[C@@H](CC(=O)O)C(=O)N[C@@H](CO)C(=O)N[C@@H](CCSC)C(=O)N[C@@H](CC(=O)O)C(=O)N[C@@H](CCCNC(=N)N)C(=O)N[C@@H](CO)C(=O)N[C@H](C(=O)N1CCC[C@H]1C(=O)N1CCC[C@H]1C(N)=O)[C@@H](C)CC)C(C)C | Bcl-2-like protein 1, C-terminal truncated (BCL2L1, Homo sapiens, UniProt Q07817) | binding, isothermal titration calorimetry | pH 7.4, 25 °C, added: PUMA BH3 peptide | Kd | 10 ± 15 nM
CC[C@H](C)[C@H](NC(=O)[C@H](C)NC(=O)[C@H](CCC(=O)O)NC(=O)[C@H](Cc1c[nH]cn1)NC(=O)[C@@H](NC(=O)[C@H](CCCCN)NC(=O)[C@H](CCC(N)=O)NC(=O)[C@H](Cc1ccccc1)NC(=O)[C@@H](NC(=O)[C@H](CCCCN)NC(=O)[C@H](CCCCN)NC(=O)[C@H](CC(C)C)NC(=O)[C@H](C)NC(=O)[C@H](CC(N)=O)NC(=O)[C@@H](N)CC(C)C)C(C)C)[C@@H](C)CC)C(=O)N[C@@H](CCCCN)C(N)=O | mouse erythrocytes |  |  | HC10 | 128 µM
N[C@H](CC[As](O)O)C(=O)O | GLS (Homo sapiens, UniProt O94925) |  |  | IC50 | 2000 nM
CNc1ccccc1C(=O)O[C@H]1[C@@H](O)[C@H](n2cnc3c(N)ncnc32)O[C@@H]1COP(=O)(O)OP(=O)(O)O | Adcy2/ADCY5, C1/C2 domains (Rattus norvegicus, UniProt P26769+P30803) | adenylyl cyclase activity, inhibitor | added: Mn2+ forskolin Gsα-GTPγS | Ki | 260 ± 40 nM
CC[C@H](C)[C@H](NC(=O)[C@H](CCCCN)NC(=O)[C@H](CCC(N)=O)NC(=O)[C@H](Cc1ccccc1)NC(=O)[C@@H](NC(=O)[C@H](CCCCN)NC(=O)[C@H](CCCCN)NC(=O)[C@H](CC(C)C)NC(=O)[C@H](C)NC(=O)[C@H](CC(N)=O)NC(=O)[C@@H](N)CC(C)C)C(C)C)C(=O)N[C@@H](Cc1c[nH]cn1)C(N)=O | mouse erythrocytes |  |  | HC10 | 256 µM
CC(=O)N[C@@H](CC(=O)O)C(=O)N[C@H]1CSSC[C@@H](C(=O)N[C@H](C(N)=O)[C@@H](C)O)NC(=O)[C@H](Cc2c[nH]c3ccccc23)NC(=O)[C@H](C(C)C)NC(=O)[C@H](CC(C)C)NC(=O)[C@H](CCC(=O)O)NC(=O)CNC(=O)[C@H](CCCCN)NC(=O)[C@H](Cc2c[nH]cn2)NC(=O)[C@H](Cc2ccc(O)cc2)NC(=O)[C@H](C)NC1=O | Immunoglobulin heavy constant gamma 1 (IGHG1, Homo sapiens, UniProt P01857) | binding, SPR | pH 7.4, added: immobilized Herceptin | Kd | > 2000 nM

A few entries again:
Structure (SMILES) | tested on | test | setting | measurement | result
CC[C@H](C)[C@H](NC(=O)[C@H](C)NC(=O)[C@H](CCC(=O)O)NC(=O)[C@H](Cc1c[nH]cn1)NC(=O)[C@@H](NC(=O)[C@H](CCCCN)NC(=O)[C@H](CCC(N)=O)NC(=O)[C@H](Cc1ccccc1)NC(=O)[C@@H](NC(=O)[C@H](CCCCN)NC(=O)[C@H](CCCCN)NC(=O)[C@H](CC(C)C)NC(=O)[C@H](C)NC(=O)[C@H](CC(N)=O)NC(=O)[C@@H](N)CC(C)C)C(C)C)[C@@H](C)CC)C(=O)N[C@@H](CCCCN)C(N)=O | mouse erythrocytes |  |  | HC10 | 128 µM
